Results from different studies.
Protocols differ between the studies behind these lines. Numbers after ± are the reported error.

`[3H]c1sc(C)nc1C=C(C)C1CC2C(CCCC(C)C(O)C(C)C(=O)C(C)(C)C(O)CC(=O)O1)N2CCO` (stereo not drawn) — result for “radioactivity in tissue”: 49.4 ± 26.2 µg-eq/g (whole-body autoradiography; CD2F1 mice, intestine contents; intravenous, 2.2 nmol/kg, 0.5 h).
`Nc1ccc(-c2ccccc2)cc1OC(=O)NC1CCCCC1` — result for “log hydrolysis rate constant”: -1.34 (rat liver S9 fraction; with: NADPH-regenerating system).
`[2H]C([2H])([2H])C([2H])([2H])C([2H])([2H])OC(C(=O)OC1CCNCC1)(c1ccccc1)c1ccccc1` has an adverse events of 14.3% (measured: aspartate aminotransferase increased; healthy Japanese male; oral, 12 mg once daily, 16 days).
`CN(C)C(CNC(=O)Nc1cc(C(F)(F)F)ccc1N1CCOCC1)c1ccncc1` (stereo not drawn) gave a creatine kinase of 8990 U/L (mouse, serum; intraperitoneal, 120 mg/kg single dose).
`CC(C)[C@H](NC(=O)CNC(=O)[C@H](CCC(N)=O)NC(=O)[C@H](C)N)C(=O)O`: “subjects with mild adverse events” 16.7% (human; intravenous infusion, 15 mg/kg/h, 2 h infusion).
Under acute toxicity, `Cc1nc2ccccc2n1CC(=O)NO` is recorded as “not toxic” (Wistar rat, female; oral, 100 mg/kg, 48 h).
The Cmax of `CC(=CCC(O)C(C)=Cc1csc(C)n1)CC=CC(C)C(O)C(C)C(=O)C(C)(C)C(O)CC(=O)O` (stereo not drawn) is reported as 35.6 ± 24 ng/mL (human, plasma; intravenous infusion, 36 mg/m2 KOS-1584, 3 h infusion, cycle 1).
With `CC(C)C[C@H](NC(=O)[C@H](CCCCN)NC(=O)[C@H](CCC(=O)O)NC(=O)[C@H](C)NC(=O)[C@@H](NC(=O)[C@H](CCCCN)NC(=O)[C@H](CC(=O)O)NC(=O)[C@H](Cc1ccc(O)cc1)NC(=O)[C@H](Cc1ccccc1)NC(=O)[C@H](C)NC(=O)[C@H](CCCCN)NC(=O)[C@H](CC(C)C)NC(=O)[C@H](Cc1c[nH]c2ccccc12)NC(=O)[C@@H](N)CC(=O)O)C(C)C)C(=O)N[C@@H](CCCCN)C(=O)N[C@@H](CCC(=O)O)C(=O)N[C@@H](C)C(=O)N[C@@H](Cc1ccccc1)C(=O)N1CCC[C@H]1C(=O)N[C@@H](CC(=O)O)C(=O)N[C@@H](Cc1c[nH]c2ccccc12)C(=O)N[C@@H](C)C(=O)N[C@@H](CCCCN)C(=O)N[C@@H](C)C(=O)N[C@@H](C)C(=O)N[C@@H](Cc1ccc(O)cc1)C(=O)N[C@@H](CC(=O)O)C(=O)N[C@@H](CCCCN)C(=O)N[C@@H](C)C(=O)N[C@@H](C)C(=O)N[C@@H](CCC(=O)O)C(=O)N[C@@H](CCCCN)C(=O)N[C@@H](C)C(=O)N[C@@H](CCCCN)C(=O)N[C@@H](CCC(=O)O)C(=O)N[C@@H](C)C(=O)N[C@@H](C)C(=O)O` the Tmax was 0 h (cynomolgus monkey female, plasma; intravenous infusion, 25 mg/kg every other day, day 27).
`Cc1ccc2c(n1)c(-c1cccc(S(C)(=O)=O)c1)c(C)n2C/C(F)=C/CN` has a terminal half-life of roughly 24 h (healthy male subjects, plasma; oral, dose not given, single ascending dose).
`C=Cc1cc(O)cc2nc(-c3ccc(O)c([76Br])c3)oc12` gave a tissue uptake of 0.08 ± 0.03 %ID/g (female C57BL/6 mouse, spleen; 1 h, high dose).
For `CCOP(=O)(OCC)OCCCCOC(=O)CC1=C(C)/C(=C/c2ccc([S+](C)[O-])cc2)c2ccc(F)cc21` (stereo not drawn), the Tmax was 1 h (rat, muscle; topical, 50 mg/kg, PSH vehicle).
`CC(C)[C@H](NC(=O)CNC(=O)[C@H](CCC(N)=O)NC(=O)[C@H](C)N)C(=O)O` — result for “subjects with serious AE”: 0% (healthy male volunteers; intravenous, 15 mg/kg/h, 2 h, with: LPS 2 ng/kg).
`C[C@@H]1CCCN1CCc1cc2cc(C(=O)c3ccc([18F])cc3)ccc2o1` gave a fraction unbound of 2.08% (ultrafiltration; monkey, plasma).
For `CC[C@H](C)[C@@H]1NC(=O)[C@H](CCCCN)NC(=O)[C@H](CCCCN)NC(=O)[C@H](Cc2ccc(O)cc2)NC(=O)[C@H](CC(C)C)NC(=O)[C@@H]2CCCN2C(=O)[C@H](C)NC(=O)CNC(=O)CNC(=O)[C@H](CO)NC(=O)CNC(=O)CNC(=O)[C@H](CO)NC(=O)[C@H](CCC(=O)O)NC(=O)[C@H](CC(C)C)NC(=O)[C@H](CC(C)C)NC(=O)[C@H](CCCCN)NC(=O)[C@H](CCCCN)NC(=O)[C@H]([C@@H](C)CC)NC(=O)[C@H]([C@@H](C)CC)NC(=O)[C@H](CCCCN)NC(=O)[C@H](CCCCN)NC(=O)[C@H](Cc2ccc(O)cc2)NC(=O)[C@H](CC(C)C)NC(=O)[C@@H]2CCCN2C(=O)[C@H](C)NC(=O)CNC(=O)CNC(=O)[C@H](CO)NC(=O)CNC(=O)CNC(=O)[C@H](CO)NC(=O)[C@H](CCC(=O)O)NC(=O)[C@H](CC(C)C)NC(=O)[C@H](CC(C)C)NC(=O)[C@H](CCCCN)NC(=O)[C@H](CCCCN)NC(=O)[C@H]([C@@H](C)CC)NC1=O`, “remaining intact peptide” read 88.8 ± 2.8% (25% human serum; 50 µM, 24 h; baseline: 0 h control).
`CCNc1cc2[o+]c3cc(NCC)c(C)cc3c(-c3ccccc3C(=O)OCCOCC[18F])c2cc1C` gave a radioactivity concentration of 69 ± 5 kBq/cm³ (PET; rat, heart; dose not given, 5 min p.i.).
`COC(=O)C[C@](O)(CCCC(C)(C)OC(C)=O)C(=O)O[C@@H]1C(OC)=C[C@]23CCCN2CCc2cc4c(cc2[C@H]13)OCO4` has a tissue concentration of 101 ng/mL (CD1 mouse, lung; oral, 1 mg/kg, 2 h).
For `CC[C@H](C)[C@H](NC(=O)[C@H](Cc1ccccc1)NC(=O)[C@H](CC(=O)O)NC(=O)[C@H](CCCNC(=N)N)NC(=O)[C@H](Cc1ccccc1)NC(=O)[C@H](Cc1ccccc1)NC(=O)[C@H](CCCCN)NC(=O)[C@H](CO)NC(=O)[C@H](CC(C)C)NC(=O)[C@H](CCCNC(=N)N)NC(=O)[C@H](CCSC)NC(=O)[C@H](C)N)C(=O)N[C@@H](CCCCN)C(=O)N[C@@H](CCC(N)=O)C(=O)N[C@@H](CCCNC(=N)N)C(=O)N[C@@H](CCCCN)C(=O)N[C@@H](CCCCN)C(=O)O`, the helicity was 15% (circular dichroism; 20% TFE in PBS; 200 µM, pH 7.4, 25 °C).
`[11CH3]n1c(=O)n(CCCO)c(=O)c2c1nc(Oc1cccc(OC(F)(F)F)c1)n2Cc1ccc(Cl)cc1` gave a tracer uptake of 0.2 ± 0.01 %ID/g (ex vivo biodistribution; Sprague Dawley rat, blood; 30 min post injection).
For `COc1cc(NC(=O)C(=O)c2c(C)n(Cc3ccc(Cl)cc3)c3ccc(C)cc23)ccn1`, the CL/F was 55.3 mL/min/kg (male cynomolgus monkey, plasma; oral, 10 mg/kg).
Under “subjects with any TEAE”, `CC[C@H](C)C(=O)N1CCC(NC(=O)Nc2ccc(OC(F)(F)F)c(F)c2)CC1` is recorded as 66.7% (healthy volunteers; oral, 16 mg single dose, 14 (unit not given)).
`C[C@H]1C(OC(=O)C(Cl)Cl)O[C@@H]2O[C@@]3(C)CC[C@H]4[C@H](C)CCC1[C@@]24OO3` (stereo partly drawn) gave a dead embryos of 0 count (Tg(fli1:EGFP) zebrafish embryos; 1.0 µg/mL, up to 48 hpf).

For quick reference, copied from above:
`CC(C)[C@H](NC(=O)CNC(=O)[C@H](CCC(N)=O)NC(=O)[C@H](C)N)C(=O)O` — result for “subjects with serious AE”: 0% (healthy male volunteers; intravenous, 15 mg/kg/h, 2 h, with: LPS 2 ng/kg).
`C[C@@H]1CCCN1CCc1cc2cc(C(=O)c3ccc([18F])cc3)ccc2o1` gave a fraction unbound of 2.08% (ultrafiltration; monkey, plasma).
